Measurements gathered from unrelated publications.
Compare with care: the assays were run in different laboratories. “And” joins repeats or separate records; there may be more than shown. ± gives the spread as reported.

`Cn1ncc(-c2nc(N[C@H]3CC[C@H](N)CC3)ncc2Cl)c1CC1CC1` has a mean half-life of 28 h (human patients; all dose levels).
Under “elimination rate constant”, `Cn1cccc1-c1cccnc1` is recorded as 1.34 h⁻¹ (rat; intravenous, 1.0 mg/kg, given alone).
`CCCCCCCCCCC[C@H](OC1OC[C@H](O)[C@@H](O)[C@@H]1O)[C@H](O)[C@H](O)C[C@@H]1CC(=O)N[C@H](CO)C(=O)N[C@H]([C@H](O)c2ccc(O)cc2)C(=O)N[C@H](CCN)C(=O)NCC(=O)N[C@@H](CC(N)=O)C(=O)N[C@@H](CO)C(=O)N[C@@H]([C@H](O)C(N)=O)C(=O)N1` (stereo partly drawn): “freeze-thaw stability, deviation” -3.56% (LC-MS/MS; rabbit plasma; 800 ng/mL, 6 freeze-thaw cycles; relative to: nominal concentration).
For `C=CC(=O)Nc1cc(Nc2nccc(Nc3cc(Cl)c(F)cc3C(C)(C)O)n2)c(OC)cc1N1CC[C@@H](N(C)C)C1`, “incidence of weight decreased” read 33.3% (treatment-emergent adverse events; human; oral, 100 mg, phase I clinical trial).
Under “drug-related adverse events”, `Cn1nc(NS(C)(=O)=O)c2c(Cl)ccc(-n3c([C@H](Cc4cc(F)cc(F)c4)NC(=O)Cn4nc(C(F)F)c5c4C(F)(F)[C@@H]4C[C@H]54)nc4nc(OCCC(F)(F)F)ccc4c3=O)c21` is recorded as 0% (item: total bile acids increased; human; 625 mg, powder in bottle).
For `C[C@@H]1NC(=O)[C@H](CCCCNC(=O)CO/N=C/C(=O)NCCCC[C@@H]2NC(=O)[C@@H](Cc3ccccc3)NC(=O)[C@H](CC(=O)O)NC(=O)CNC(=O)[C@H](CCCNC(=N)N)NC2=O)NC(=O)CNC(=O)[C@@H]2CCCN2C(=O)[C@H](CCCCNC(=O)CO/N=C/C(=O)NCCCC[C@@H]2NC(=O)[C@@H](Cc3ccccc3)NC(=O)[C@H](CC(=O)O)NC(=O)CNC(=O)[C@H](CCCNC(=N)N)NC2=O)NC(=O)[C@H](CCCCNC(=O)CCNC(=O)CCNC(=O)CCNC(=O)[C@H](CCCCN)NC(=O)[C@H](Cc2ccccc2)NC(=O)CNC(=O)CN2CCCNCCNCCCNCC2)NC(=O)[C@H](CCCCNC(=O)CO/N=C/C(=O)NCCCC[C@@H]2NC(=O)[C@@H](Cc3ccccc3)NC(=O)[C@H](CC(=O)O)NC(=O)CNC(=O)[C@H](CCCNC(=N)N)NC2=O)NC(=O)CNC(=O)[C@@H]2CCCN2C(=O)[C@H](CCCCNC(=O)CO/N=C/C(=O)NCCCC[C@@H]2NC(=O)[C@@H](Cc3ccccc3)NC(=O)[C@H](CC(=O)O)NC(=O)CNC(=O)[C@H](CCCNC(=N)N)NC2=O)NC1=O` [copper-64 labelled], the tissue uptake was 5.3 ± 0.54 %ID/g (normal mice, spleen; intravenous, 0.74 MBq, 3 h post-injection).
`O=C1Nc2cc3[nH]nc(-c4ccncc4)c3cc2CN1Cc1ccccc1` — result for “patients with increased GGT”: 0% (CTCAE v4.03; advanced solid tumour patients; intravenous, 3.6 mg/kg, schedules 1/2).
For `CCC[C@H]1CC[C@H](c2ccc(-c3ccc(F)cc3)cc2)CC1`, “mean serum concentration” read 0.52 ng/mL (human mother-newborn pairs, female fetuses, cord serum).
For `Clc1ccc(-c2ccccc2)cc1`, the serum CO2 was 24 ± 2 mmol/L (rat Sprague-Dawley female, serum; inhalation, 23 µg/rat, 4 h).
`CN1CC[C@@H](c2c(O)cc(O)c3c(=O)cc(-c4ccc(C(F)(F)F)cc4Cl)oc23)[C@@H]1CO`: “patients with adverse event” 0% (item: Hypoalbuminemia; relapsed B-cell malignancies; oral, 100 mg, grade 3-4, intermittent dosing).
For `CN1CCN(S(=O)(=O)c2cc([N+](=O)[O-])ccc2N(CCOS(C)(=O)=O)CCOS(C)(=O)=O)CC1`, the amylase was 676 U/L (naive NOD/SCID mice, pooled blood; intraperitoneal, 25 mg/kg, week 4).
Under “patients with Hyperphosphatemia TEAE”, `C[C@]1(O)C[C@@](N)(c2ccc(-c3nc4n(c3-c3ccccc3)COc3ccncc3-4)cc2)C1` is recorded as 0% (human, advanced or metastatic solid tumours; 24 mg intermittent, phase I dose escalation).
The drug concentration of `COc1ncccc1-c1cnn2ccc(N3CCN(C(=O)OC(C)C)CC3)nc12` is reported as 3.3 µM (mouse, SNL model, plasma; oral, 10 mg/kg, 120 min).
`C[C@@H](NC(=O)N1C(=O)[C@H](Cc2ccnc(N)c2)[C@H]1C(=O)O)C1CCCCC1` — result for “drug-related decreased neutrophil”: 0% (healthy adult Chinese volunteers; continuous intravenous infusion, 1.5 mg/kg/h, 5-day infusion, CTCAE 5.0 grading).
`CCCCCCCCCCCCCCCC(=O)N[C@@H](CCC(=O)NCCCC[C@H](NC(=O)[C@H](CC(=O)O)NC(=O)[C@H](CO)NC(=O)[C@@H](NC(=O)[C@H](Cc1ccccc1)NC(=O)[C@@H](NC(=O)CNC(=O)[C@H](CCC(N)=O)NC(=O)[C@H](CO)NC(=O)[C@@H](N)Cc1c[nH]cn1)[C@@H](C)O)[C@@H](C)O)C(=O)N[C@@H](CO)C(=O)N[C@@H](CCC(=O)O)C(=O)N[C@@H](Cc1ccc(O)cc1)C(=O)N[C@@H](CC(C)C)C(=O)N[C@@H](CC(=O)O)C(=O)N[C@@H](CO)C(=O)N[C@@H](CCC(=O)O)C(=O)N[C@@H](CCCNC(=N)N)C(=O)N[C@@H](C)C(=O)N[C@@H](CCCNC(=N)N)C(=O)N[C@@H](CC(=O)O)C(=O)N[C@@H](Cc1ccccc1)C(=O)N[C@H](C(=O)N[C@@H](C)C(=O)N[C@@H](Cc1c[nH]c2ccccc12)C(=O)N[C@@H](CC(C)C)C(=O)N[C@@H](CCC(=O)O)C(=O)N[C@@H](C)C(=O)NCC(=O)NCC(=O)O)C(C)C)C(=O)O` — result for “treatment-related adverse events”: 18.2% (item: Vomiting; humans CrCl 30 to 45 mL/min; subcutaneous, 100 µg single dose).
The MCV of `CCc1ccc(CC/C=C/c2ccc3c(c2)C(=O)CC3)cc1` is reported as 57.8 fL (Sprague-Dawley rat, female, blood; oral, 450 mg/kg/day, 14 days).
With `CO[C@H]1C[C@@H]2CC[C@@H](C)[C@@](O)(O2)C(=O)C(=O)N2CCCC[C@H]2C(=O)O[C@H]([C@H](C)C[C@@H]2CC[C@@H](OC(=O)NCCOCCOCCOCCOCCOCCOCCOCCOCCC(=O)N3CCc4cc(Cn5nc(-c6ccc7oc(N)nc7c6)c6c(N)ncnc65)ccc4C3)[C@H](OC)C2)C[C@@H](O)[C@H](C)/C=C(\C)[C@@H](O)[C@@H](OC)C(=O)[C@H](C)C[C@H](C)/C=C/C=C/C=C/1C` the dysgeusia incidence was 50% (patients with advanced solid tumours; intravenous, 16 mg weekly, any grade).
`Brc1ccc(Oc2cc(Br)c(Br)cc2Br)c(Br)c1`: “dose fraction in permeate” 11% (ultrafiltration; cow milk whey; 200 nM nominal in whole milk).
`CC(=O)NCC(=O)NCC(=O)N[C@H](C(=O)N[C@@H](Cc1ccc(O)cc1)C(=O)N[C@@H](CO)C(=O)N[C@H]1CSSC[C@@H](C(=O)N[C@@H](CCCNC(=N)N)C(=O)N2CCC[C@H]2C(=O)N[C@@H](CCC(N)=O)C(=O)N[C@@H](CCCNC(=N)N)C(=O)NCC(=O)NCCC(=O)N[C@@H](CCCCNC(=O)CN(CC(=O)NCCCC[C@H](NC(=O)CCNC(=O)CNC(=O)[C@H](CCCNC(=N)N)NC(=O)[C@H](CCC(N)=O)NC(=O)[C@@H]2CCCN2C(=O)[C@H](CCCNC(=N)N)NC(=O)[C@@H]2CSSC[C@H](NC(=O)[C@H](CO)NC(=O)[C@H](Cc3ccc(O)cc3)NC(=O)[C@@H](NC(=O)CNC(=O)CNC(C)=O)[C@@H](C)O)C(=O)N[C@@H](Cc3c[nH]cn3)C(=O)N[C@@H](Cc3ccccc3)C(=O)NCC(=O)N[C@@H](C)C(=O)N[C@@H](CC(C)C)C(=O)N[C@@H]([C@@H](C)O)C(=O)N[C@@H](Cc3c[nH]c4ccccc34)C(=O)N[C@@H](C(C)C)C(=O)N2)C(N)=O)C(=O)CCN)C(N)=O)NC(=O)[C@H](C(C)C)NC(=O)[C@H](Cc2c[nH]c3ccccc23)NC(=O)[C@H]([C@@H](C)O)NC(=O)[C@H](CC(C)C)NC(=O)[C@H](C)NC(=O)CNC(=O)[C@H](Cc2ccccc2)NC(=O)[C@H](Cc2c[nH]cn2)NC1=O)[C@@H](C)O` — result for serum concentration: “not detected” (MSD immunoassay; BALB/c mice, healthy female, serum; subcutaneous, 0.08 mg/kg, 96 h, LLOQ 2.0 ng/mL).
The half-life of `C[C@]1(CO)Cc2ncn(-c3ccc(C#N)c(Cl)c3)c2C(=O)O1` is reported as 6.3 h (human, plasma; 80 mg single dose, geometric mean).
For `Cc1ccccc1C(=O)NN=Cc1ccc(O)c(Br)c1`, the plasma concentration was 106 ng/mL (normal C3H/HeN mouse, plasma; intravenous, 1.6 mg/kg, 30 min).
`CCN1[C@@H](C(=O)NC23CCC(C(=O)O)(CC2)CC3)[C@H](c2cccc(Cl)c2F)[C@]2(C(=O)Nc3cc(Cl)ccc32)C12CCCCC2`: “abdominal pain incidence” 0% (patients with advanced solid tumours; oral, 200 mg).
Under “weight loss incidence”, `CCN1CCN(Cc2ccc(Nc3ncc(F)c(-c4cc(F)c5nc6n(c5c4)[C@H](C)CCC6)n3)nc2)CC1` is recorded as 0% (Phase Ia dose escalation; patients with advanced solid tumours; dose not given, monotherapy, grade ≥3).
For `CC(C)[C@@H]1NC(=O)CNC(=O)[C@H](CC(N)=O)NC(=O)[C@H](CCCNC(=N)N)NC(=O)[C@H](Cc2ccc(O)cc2)NC(=O)[C@H](C(C)C)NC(=O)[C@@H](NC(=O)[C@@H](NC(=O)[C@H](CC(N)=O)NC(=O)[C@H](Cc2c[nH]c3ccccc23)NC(=O)[C@H](C)NC(=O)[C@H](Cc2ccccc2)NC(=O)CN)C(C)C)CSSC[C@@H](C(=O)N[C@@H](Cc2cnc[nH]2)C(=O)N[C@@H](CCCNC(=N)N)C(=O)N[C@@H](CCCNC(=N)N)C(=O)N[C@@H](C)C(=O)N[C@@H](CC(N)=O)C(N)=O)NC(=O)[C@H](C(C)C)NC(=O)[C@H](CCCNC(=N)N)NC1=O`, the phosphorus was 3.13 ± 0.24 mmol/L (ICR mice, serum; intraductal mammary, 5 mg/kg, day 5).
`[O-][S+]1CCc2nc(N3CCC(c4ncc(Cl)cn4)CC3)nc(NC3(CO)CCC3)c21` (stereo not drawn): “adverse event incidence” 16.7% (item: Constipation; healthy male humans; 36 mg single dose).
`Clc1cc2c(cc1Cl)Oc1c(ccc(Cl)c1Cl)O2` — result for “dose fraction in skim milk”: 7.32% (whole cow milk; 20 nM nominal).
The prothrombin time of `O=C(O)CCCOc1ccc(F)cc1-c1cc(-c2ccccc2C(F)(F)F)n(-c2ccccc2)n1` is reported as 9 s and 9.8 s and 9.9 s and 9.7 s and 9.1 s (female Crl:CD(SD) rats; intravenous, 25 µg/kg, 14 d).
`CC(C)C[C@H](NC(=O)[C@H](C)NC(=O)[C@@H](NC(=O)[C@H](CCCNC(=N)N)NC(=O)[C@H](CC(C)C)NC(=O)[C@H](Cc1c[nH]c2ccccc12)NC(=O)[C@@H]1CCCN1C(=O)[C@@H](N)CCCCN)C(C)C)C(=O)N[C@@H](CS)C(=O)N1CCC[C@H]1C(=O)NCC(=O)O` has a hemolysis of 0.86% and 1.28% and 0.92% (sheep red blood cells; 256 µM, 1 h, 37 °C).
For `CC(=O)c1c(C)c2cnc(Nc3ccc(C4CCN(CCS(C)(=O)=O)CC4)cn3)nc2n(C2CCCC2)c1=O`, the clearance was 2040 mL/min (human, plasma; oral, 50 mg twice daily, day 1, single dose, together with: letrozole).
For `CC(C)n1c(C2CCNCC2)nc2c([N+](=O)[O-])c(Br)c(Br)cc21`, “AE leading to dose reduction” read 0% (patients with AML; 125 mg).
Under “patients with adverse event”, `C[C@@H]1OC(=O)NN=C1c1ccc(-c2ccc(F)cc2)c(C(F)(F)F)c1` is recorded as 0% (phase I trial, item: Presyncope worst grade 2; human patients; 5 mg once daily).
Under “subjects with adverse event Nausea”, `NCCCC[C@@H]1NC(=O)[C@@H](Cc2c[nH]c3ccccc23)NC(=O)[C@H](c2ccccc2)NC(=O)[C@@H]2C[C@@H](OC(=O)NCCN)CN2C(=O)[C@H](Cc2ccccc2)NC(=O)[C@H](Cc2ccc(OCc3ccccc3)cc2)NC1=O` is recorded as 54% (healthy human volunteers; 600 µg twice daily).
The freeze-thaw stability of `O=c1nc(NO)ccn1[C@@H]1O[C@H](CO)[C@@H](O)[C@H]1O` is reported as 101.4 ± 0.54% (rat maternal blood dialysate; 25 ng/mL, low concentration, three cycles, together with: molnupiravir 5 ng/mL).
`COc1ccc(C[C@@H]2NC(=O)[C@H]([C@@H](C)O)NC(=O)[C@@H]3[C@@H]4CCN3C(=O)[C@@H]3Cc5cn(c6ccc(F)cc56)CCCCCCN(Cc5ccc(cc5)CCNC(=O)[C@]5(C)CCCN5C2=O)C(=O)CCC(=O)N[C@@H](C)C(=O)N[C@H](CNC(=O)CCCCC[N+](C)(C)C)C(=O)N[C@@H](Cc2cccc(c2)CNC(=O)CO4)C(=O)N3)cc1`: “participants with adverse event” 3.2% (item: Regurgitation; humans; concentration not given, Study-003).
`COc1cc2c(Oc3ccc4[nH]c(C)cc4c3F)ccnc2cc1OCC1(N)CC1`: “grade 1 or 2 Hypertension” 0% (paediatric recurrent refractory sarcoma; 8 mg).
Under “Gastrointestinal disorders adverse events”, `O=C(Nc1ccccc1)C1CCN(C(=O)Oc2cccnc2)CC1` is recorded as 0% (healthy women; oral, 60 mg, 7 days).
